# Measurements from different studies.
# Numbered parts are unrelated; each lists some results of a single study.

# Series 1
# Target: Sal-like protein 4, full length isoform B (SALL4, Homo sapiens, UniProt Q9UJQ4-2, residues 1-616)
# Technique: universal PBM
# Molecule type: double-stranded DNA, one strand shown
# Matrix: in vitro
# Tested at: not given
# Notes: 8-mer, flanks averaged, mean of replicates
# Reading: higher = stronger binding
Strand,E-score
GTAAGTTA,0.161
GACAAAGA,0.107
AGGGGCGG,-0.301
AGTAAGTC,-0.0619
CTCAGGGC,-0.252

# Series 2
# Target: Histone acetyltransferase KAT6A, winged helix 2, GST fusion (KAT6A, Homo sapiens, UniProt Q92794, residues 85-181)
# Technique: protein binding microarray
# Molecule type: double-stranded DNA, one strand shown
# Matrix: in vitro
# Tested at: not given
# Notes: 8-mer, flanks averaged, mean of 2 arrays, mostly near background
# Relative to: not given
# Reading: higher = stronger binding
# Target sequence (chain): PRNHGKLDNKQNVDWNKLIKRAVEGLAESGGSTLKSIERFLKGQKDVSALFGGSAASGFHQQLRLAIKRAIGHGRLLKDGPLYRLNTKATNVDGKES
Strand,E-score
ATGGGACG,-0.114
AAAAGTCT,-0.366
AGTTAAGC,-0.0662
GGCGCTCA,-0.0283
GAGGCAAC,-0.108
CACGCATC,0.189
GATTTATA,0.193

# Series 3
# Target: RNA binding protein fox-1 homolog 2, RRM domain, GST-SBP tag (RBFOX2, Homo sapiens, UniProt O43251-10, residues 100-194)
# Technique: RNA Bind-n-Seq
# Molecule type: RNA
# Matrix: in vitro
# Tested at: 365 nM
# Notes: natural RNA segment, single round, ends assumed
# Relative to: no-protein control
# Reading: higher = stronger binding
# All sequences stand within: GGGAGUUCUACAGUCCGACGAUC … UGGAAUUCUCGGGUGCCAA
# Residues (chain): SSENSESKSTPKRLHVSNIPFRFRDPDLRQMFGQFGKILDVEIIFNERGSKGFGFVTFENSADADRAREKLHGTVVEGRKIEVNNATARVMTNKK
Strand,RBNS enrichment (R)
AAGGGGUGAACUUCAGAUGGCUCUUCUUGGUUGUCAGCCCGACUACAUUUGGAAUUAACUGAAGCCAAACUGCUGGGUACACCUGUGAGGAUUUUUUUUUCCUUAAGUAA,0.348
AAGCAAAGUCACUUCUCCAUCACAACCAGAUUUGAGGCUGGUUUUGAUGGCUGGGUCCUUGGGCCUGGCCAGUCUUCCUCUUAGCCUCUGGAUCUAGAAGGGACCAUAAG,0.235
AUUUUACAAUAUUUUUUCUUUACAAUAUGUUCUGUAGUAUGUUUACCCUCUUUAUGAAGUGAAUUACCAAUGCUUUGAAUAAUGUUCACUUAUACAUUCCUGUACAGAAA,1.48
GCUGCUAUCAGCUCUGUUAGGUUAUUGUGGGUGUUAGAGGCCGAGCACAGCGACCUCCAGGGCACCUCUGCGGAGUGACUAGCCACAGGCAGAGCUGCAUUGUGGUAUAU,0.428
AACAUAUUGUGCCAGUGUUGCAACGUUUUAAACUGCUAACAGACCUUAAAAUAUCCCCCUACCUGGGUCCUCAGUGCUAUGUUUAAAGUGCUGCAGGGAUGGAGUGGCGU,0.45
UAACACACUGGCCAUUCUUAUGUUCCAGAUGGCCCCCAGCUGGUGUCCUGCCCGCCUUUCAUCUGGAUUCUACAAAAAACCAGGAUGCCCACCGUUAGGAUUCAGGCAGC,0.217

# Further values, each from its own experiment
Molecule,target,test,system,setting,how to read,quantity,value
"PhoQ, residues 284 288 289 292 302 303 SVHLDV","PhoP, residues 12 14 15 18 19 TPWLV (Escherichia coli, UniProt P23836)","Sort-seq, refers to: YFP reporter",E. coli,"PhoQ-PhoP variant library, added: 10 µM Mg2+","relative to: high Mg2+ state, higher = stronger signaling",fold induction,7.35

# A few entries again (series 1):
Strand,E-score
AGTAAGTC,-0.0619
CTCAGGGC,-0.252
